# Measured values from different studies.
# ± gives the spread as reported.
SMILES,target or system,assay,test system,setting,quantity,result
O=C(Nc1ccc2c(O)cc(S(=O)(=O)O)cc2c1)Nc1ccc2c(O)cc(S(=O)(=O)O)cc2c1,calf thymus histone H3,"binding, SPR",,,Kd,671 nM
Cc1cc(OCc2nnc(SC3CCCC3)n2-c2cccnc2)ccc1-c1ccc(S(C)(=O)=O)cc1,MDA-MB-231,,,,CC50,6.35 µM
N#Cc1ccc(-c2csc(CNC(=O)C34CC(CN(C(=O)COCCF)C3)C4)n2)cc1,Plasmodium falciparum,,3D7,"72 h, asexual blood stage",EC50,60 ± 18 nM
CC(C)(C)n1nc(-c2cnc3cc(OC4CC4)ccc3c2)c(C(N)=O)c1N,Plasmodium yoelii,,,"0.1 µM, gametocytes",inhibition,31%
CC(C)(NC(=O)O[C@@H]1CN2CCC1CC2)c1csc(-c2ccc(F)cc2)n1,other methyltransferases,,,50 µM,inhibition,< 50%
NS(=O)(=O)NC[C@H]1COc2cc(F)ccc2O1,,maximal electroshock seizure,mouse,oral,ED50,160 to 200 mg/kg
C(#Cc1c[nH]c2nccc(-c3ccncc3)c12)c1cccnc1,,,"mouse C57BL/6, male","oral, 20 mg/kg",AUC(0-inf),1220 ± 617 ng·h/mL
O=C(Nc1ccc(-c2ccc3ccccc3n2)cc1)C1CCN(Cc2ccc(F)cc2)CC1,,,"sodium phosphate buffer, 1% DMSO",pH 7.4,solubility,31 to 63 µM
N#CC1=C2N=C(N)c3ccccc3N2C2=C(C(=O)CCC2)C1c1ccc(-c2ccccc2)cc1 (centres unmarked),HMC3 human microglial cells,"pHrodo-myelin phagocytosis, activator",,48 h,EC50,2200 nM
O=C(Nc1ccc(-c2cnc3ccccc3c2)cc1)C1CCN(Cc2cccnc2)CC1,,,"sodium phosphate buffer, 1% DMSO",pH 7.4,solubility,63 to 125 µM
CCOc1ccc2cc(-c3nn(C(C)(C)C)c(N)c3C(N)=O)ccc2c1,Plasmodium yoelii,,,"0.1 µM, gametocytes",inhibition,55%
